Results collected from several papers.
Compare with care: the assays were run in different laboratories. ± marks the error that the study gave.

Structure (SMILES)	system	setting	tissue uptake
N=C(N)NCc1ccc(C(=O)NCCCC[C@H](NC(=O)N[C@@H](CCC(=O)O)C(=O)O)C(=O)O)cc1[131I]	SCID mouse, PC-3 xenografts, thyroid	2 h	0.22 ± 0.05 %ID/g
O=C(c1ccc(F)cc1)C1CCN(C2Cc3c(cccc3OCC[18F])CC2O)CC1 (single isomer, unassigned; (-))	Sprague-Dawley rat, male, muscle	intravenous, dose not given, 5 min	0.171 ± 0.055 %ID/g
COc1cc2ccnc(Cc3ccc(O[11CH3])c(OC)c3)c2cc1OC	Sprague-Dawley rats, kidney	intravenous, 0.5 h	0.312 ± 0.054 %ID/g
CN[C@](C)(C[18F])C(=O)O	SCID mouse DU-145 xenograft, brain	120 min, post injection	0.2 ± 0.04 %ID/g
C=Cc1cc(O)cc2nc(-c3ccc(O)c([76Br])c3)oc12	female C57BL/6 mouse, lung	1 h, low dose	0.33 ± 0.05 %ID/g
N=C(N)NCc1ccc(C(=O)NCCCC[C@H](NC(=O)CCCCCCC(=O)NCCCC[C@H](NC(=O)N[C@@H](CCC(=O)O)C(=O)O)C(=O)O)C(=O)O)cc1[211At]	SCID mouse, PC-3 xenografts, stomach	2 h	2.86 ± 0.67 %ID/g
CCNc1cc2[o+]c3cc(NCC)c(C)cc3c(-c3ccccc3C(=O)OCCOCC[18F])c2cc1C	rat, gut	30 min	1.39 ± 0.78 %ID/g
COc1cc2ncnc(Oc3cccc(N[11C](=O)Nc4cc(C(C)(C)C(F)(F)F)on4)c3)c2cc1OC	Balb/c nude mouse, female, A375 melanoma xenograft, muscle	6.6 MBq, 60 min	2.63 ± 0.05 %ID/g
N=C(N)NCc1ccc(C(=O)NCCCC[C@H](NC(=O)N[C@@H](CCC(=O)O)C(=O)O)C(=O)O)cc1[211At]	SCID mouse, PC-3 xenografts, blood	14 h	0.16 ± 0.04 %ID/g
O=C(O)CC[C@H](NC(=O)O[C@@H](CCCCNC(=O)c1ccc([18F])cc1)C(=O)O)C(=O)O	mouse, PC-3 PIP/flu xenografts, blood	180 min	0.08 ± 0.06 %ID/g

Some of these lines once more:
Structure (SMILES)	system	setting	tissue uptake
O=C(O)CC[C@H](NC(=O)O[C@@H](CCCCNC(=O)c1ccc([18F])cc1)C(=O)O)C(=O)O	mouse, PC-3 PIP/flu xenografts, blood	180 min	0.08 ± 0.06 %ID/g
